Assay results gathered from unrelated publications.
Numbered parts are unrelated; each lists some results of a single study. Substitutions count along the parent as printed.

Sample 1
Target: CCNA2, cyclin fold, Cln2 fusion (human)
Method: yeast growth competition, sequencing
Medium: yeast
Setting: strong parent motif
Relative to: not given
Reading: higher = stronger binding
Starting sequence: CDKN1B docking peptide (human); PSACRNLFGPVDH; partner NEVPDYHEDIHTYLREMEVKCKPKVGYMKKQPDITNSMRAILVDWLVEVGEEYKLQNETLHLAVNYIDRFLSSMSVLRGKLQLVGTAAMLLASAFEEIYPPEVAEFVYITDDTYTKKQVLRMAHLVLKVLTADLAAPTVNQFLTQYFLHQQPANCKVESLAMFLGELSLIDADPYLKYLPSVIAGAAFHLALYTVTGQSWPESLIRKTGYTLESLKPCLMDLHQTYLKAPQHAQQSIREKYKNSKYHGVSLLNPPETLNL
| Substitution | normalised enrichment score |
| --- | --- |
| PSACRNLFGPVFH [D12F] | 3.51 |
| PSACRNLFGPVRH [D12R] | 3.72 |
| PSACRNLFGPNDH [V11N] | 3.61 |
| PSACCNLFGPVDH [R5C] | -0.0591 |
| PSACRNLFWPVDH [G9W] | 0.977 |
| PSVCRNLFGPVDH [A3V] | 4.89 |
| DSACRNLFGPVDH [P1D] | 1.03 |
| PSACRNLFGCVDH [P10C] | 2.76 |
| PSACRNLCGPVDH [F8C] | -0.14 |
| PSACRNLFGTVDH [P10T] | 3.52 |
| PSACRNLFGPVDK [H13K] | 4.03 |
| PSACRNTFGPVDH [L7T] | 0.0261 |
| PSACRNLWGPVDH [F8W] | 0.899 |
| PSSCRNLFGPVDH [A3S] | 2.55 |
| PSACRNLFRPVDH [G9R] | 0.704 |
| PSACRNLDGPVDH [F8D] | -0.33 |
| PSAPRNLFGPVDH [C4P] | 0.839 |
| PSACRILFGPVDH [N6I] | 2.05 |
| LSACRNLFGPVDH [P1L] | 3.3 |
| QSACRNLFGPVDH [P1Q] | 3.94 |

Sample 2
Target: Prothrombin, mature alpha-thrombin (F2, Homo sapiens, UniProt P00734)
Method: aptamer microarray, sandwich
Form: DNA with 2'F-ANA
Medium: in vitro
Concentration: 200 nM
Setting: whole 15-mer aptamer, many near background
With: Cy3 exosite-II aptamer, 400 nM
Reading: higher = stronger binding
Sequence: GGTTGGTGTGGTTGG
| Modification | mean fluorescence intensity |
| --- | --- |
| 2'F-ANA at 1 3 8 11 13 14 15 | 88.8 a.u. |
| 2'F-ANA at 1 2 4 5 11 15 | 53.3 a.u. |
| 2'F-ANA at 4 5 6 7 8 9 10 13 14 | 60.4 a.u. |
| 2'F-ANA at 1 3 5 6 8 11 13 14 | 45.5 a.u. |
| 2'F-ANA at 5 6 7 8 9 11 12 | 119 a.u. |
| 2'F-ANA at 1 3 4 5 6 7 8 9 11 13 14 15 | 62.4 a.u. |
| 2'F-ANA at 3 7 8 9 11 12 13 14 | 685 a.u. |
| 2'F-ANA at 2 4 7 8 10 12 | 150 a.u. |
| 2'F-ANA at 1 3 4 5 6 7 8 10 | 45.4 a.u. |
| 2'F-ANA at 2 3 4 5 6 7 10 11 12 13 14 | 61.8 a.u. |
| 2'F-ANA at 1 2 3 4 7 8 11 12 | 391 a.u. |
| 2'F-ANA at 2 4 5 13 14 15 | 48 a.u. |
| 2'F-ANA at 1 3 5 9 10 11 12 13 14 15 | 49.3 a.u. |
| 2'F-ANA at 1 4 5 6 7 8 9 10 11 12 14 | 47.7 a.u. |
| 2'F-ANA at 2 8 9 11 15 | 406 a.u. |
| 2'F-ANA at 4 8 10 14 | 55.7 a.u. |
| 2'F-ANA at 2 4 9 12 15 | 666 a.u. |
| 2'F-ANA at 5 10 11 12 14 | 43.5 a.u. |
| 2'F-ANA at 4 5 6 8 12 13 14 15 | 58.1 a.u. |
| 2'F-ANA at 1 2 3 4 5 6 7 8 9 12 13 14 | 66.1 a.u. |
| 2'F-ANA at 4 5 8 9 10 11 15 | 116 a.u. |

Sample 3
Target: Histone acetyltransferase KAT6A, winged helix 2, GST fusion (KAT6A, Homo sapiens, UniProt Q92794, residues 85-181)
Method: protein binding microarray
Form: double-stranded DNA, one strand shown
Medium: in vitro
Concentration: not given
Setting: 8-mer, flanks averaged, mean of 2 arrays, mostly near background
Relative to: not given
Reading: higher = stronger binding
Residues (chain): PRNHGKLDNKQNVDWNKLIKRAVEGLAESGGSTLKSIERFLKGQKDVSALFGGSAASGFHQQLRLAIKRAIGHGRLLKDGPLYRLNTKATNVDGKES
| Sequence | E-score |
| --- | --- |
| CATAATGG | -0.141 |
| ACAATCAG | -0.00207 |
| TAATACTA | 0.0844 |
| ATCAGTAA | -0.0169 |
| GAAGCTGA | 0.108 |
| GCTTCAAC | -0.13 |
| TCATTGGA | 0.0739 |
| ACAAGCCT | -0.107 |
| CTCAAACA | 0.182 |
| GGCCCCAC | 0.00751 |
| TGGATAAA | 0.109 |
| ACGTCGTA | -0.192 |
| ACCGGAGT | -0.0234 |
| GAAACGCC | 0.0573 |
| GAACTTTA | -0.0135 |
| CTCCTTCA | -0.0775 |
| CCTTGAAG | -0.0152 |
| ACAATACT | -0.0338 |
| CCCGTGAA | -0.113 |
| TATAAATA | 0.112 |
| CAACGGCC | 0.012 |
| ACATGGAT | -0.0423 |
| GCCTAAAC | 0.119 |
| TGGAGAAA | 0.0669 |
| CCTCTAGA | -0.118 |

Sample 4
Target: Ras GTPase-activating protein-binding protein 1, RRM domain (G3BP1, Homo sapiens, UniProt Q13283)
Chain of UniProt Q13283 (whole entry, looked up): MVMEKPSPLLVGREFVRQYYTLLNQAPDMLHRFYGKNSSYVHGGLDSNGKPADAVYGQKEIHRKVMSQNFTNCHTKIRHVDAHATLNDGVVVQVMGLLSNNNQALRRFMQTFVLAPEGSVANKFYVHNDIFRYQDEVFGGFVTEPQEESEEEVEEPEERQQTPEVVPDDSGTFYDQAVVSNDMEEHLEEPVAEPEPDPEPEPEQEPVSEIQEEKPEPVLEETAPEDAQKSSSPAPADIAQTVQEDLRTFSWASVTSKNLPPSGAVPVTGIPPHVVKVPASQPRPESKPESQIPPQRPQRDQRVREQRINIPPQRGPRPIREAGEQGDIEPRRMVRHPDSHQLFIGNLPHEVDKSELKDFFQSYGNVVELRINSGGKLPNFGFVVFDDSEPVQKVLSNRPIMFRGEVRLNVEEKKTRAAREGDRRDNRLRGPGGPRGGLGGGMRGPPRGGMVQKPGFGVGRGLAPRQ
Method: RNA Bind-n-Seq
Form: RNA
Medium: in vitro
Concentration: 1 µM
Setting: whole 134-nt RNA, ends assumed
With: 150 mM KCl
Relative to: input library
Reading: higher = stronger binding
Shared flanks, not repeated: GGGAGUUCUACAGUCCGACGAUC … UGGAAUUCUCGGGUGUCAAGG
| Sequence | log2 enrichment |
| --- | --- |
| UCAAGUCCUGUGCUACACAUCGUAUGUACCGAAUCGGUUUGGUUUUUGGAAAGGAAAGUAUUAUGUUACGCCGUUCGGAUCUGCACUUCC | -0.146 |
| UCCUGUGCUACACAUCGUAUGUACCGAAUCGGGGAAAAAGGGGAAAAAGGGAAAAAGGGAAAGUAUUAUGUUACGCCGUUCGGAUCUGCA | 0.0804 |
| AGUCCUGUGCUACACAUCGUAUGUACCGAAUCGGGAGGGAAAAAGGGUUUUUUUGGGAAAGUAUUAUGUUACGCCGUUCGGAUCUGCACU | 0.507 |
| CCUCAAGUCCUGUGCUACACAUCGUAUGUACCGAAUCGGGGCGGGCGGCGGGAAAGUAUUAUGUUACGCCGUUCGGAUCUGCACUUCCAG | -0.268 |
| AAGUCCUGUGCUACACAUCGUAUGUACCGAAUCGGUGGUUUUUUUGGAAAAAAAGGAAAGUAUUAUGUUACGCCGUUCGGAUCUGCACUU | -0.203 |
| GCAGGAAGUAAAAACAAAUGGAAAUGCUUCGGAUAGUGGCAGGGGUGGGGGUUGCUAAAGAAAGGGUGGGAUGGGAGUGGGUAAAGAGUU | 0.354 |
| UCAAGUCCUGUGCUACACAUCGUAUGUACCGAAUCGGUUUGGGUUUGGGUUUGGGAAAGUAUUAUGUUACGCCGUUCGGAUCUGCACUUC | -0.239 |
| GUCCUGUGCUACACAUCGUAUGUACCGAAUCGGGGUUUUUUUGGGGAAAGGGGUGGGGAAAGUAUUAUGUUACGCCGUUCGGAUCUGCAC | 0.565 |
| GCAGGAAGUAAACACAAAUGGAAAUGCUUCGGAUAGUGGCAGGGGUGGGGGUUGCUAAGGAAAGGGUGGGAUGGGAGUGGGUAAAGAGUU | 1.26 |

Further values, each from its own experiment
| Molecule | target | test | test system | conditions | scale | quantity | value |
| --- | --- | --- | --- | --- | --- | --- | --- |
| PhoQ, residues 284 288 289 292 302 303 SLCLSL | PhoP, residues 12 14 15 18 19 SPWRL (Escherichia coli, UniProt P23836) | Sort-seq, measured: YFP reporter | E. coli | PhoQ-PhoP variant library, with: 10 µM Mg2+ | relative to: high Mg2+ state, higher = stronger signaling | fold induction | 3.38 |

For quick reference, copied from above (sample 2):
| Modification | mean fluorescence intensity |
| --- | --- |
| 2'F-ANA at 2 3 4 5 6 7 10 11 12 13 14 | 61.8 a.u. |
| 2'F-ANA at 3 7 8 9 11 12 13 14 | 685 a.u. |
| 2'F-ANA at 5 10 11 12 14 | 43.5 a.u. |
| 2'F-ANA at 1 3 5 6 8 11 13 14 | 45.5 a.u. |
| 2'F-ANA at 2 4 7 8 10 12 | 150 a.u. |
| 2'F-ANA at 4 5 6 8 12 13 14 15 | 58.1 a.u. |
| 2'F-ANA at 1 3 5 9 10 11 12 13 14 15 | 49.3 a.u. |
| 2'F-ANA at 4 5 8 9 10 11 15 | 116 a.u. |
| 2'F-ANA at 4 5 6 7 8 9 10 13 14 | 60.4 a.u. |
| 2'F-ANA at 4 8 10 14 | 55.7 a.u. |
